Measured values pooled from the literature.
Each line is one published result; not all experiments were run side by side. Several values in a cell are separate wells, animals, samples, runs or records. ± gives the spread as reported.
Oprd1: Delta-type opioid receptor (Oprd1, Rattus norvegicus, UniProt P33533)
Sequence of UniProt P33533 (whole entry, looked up): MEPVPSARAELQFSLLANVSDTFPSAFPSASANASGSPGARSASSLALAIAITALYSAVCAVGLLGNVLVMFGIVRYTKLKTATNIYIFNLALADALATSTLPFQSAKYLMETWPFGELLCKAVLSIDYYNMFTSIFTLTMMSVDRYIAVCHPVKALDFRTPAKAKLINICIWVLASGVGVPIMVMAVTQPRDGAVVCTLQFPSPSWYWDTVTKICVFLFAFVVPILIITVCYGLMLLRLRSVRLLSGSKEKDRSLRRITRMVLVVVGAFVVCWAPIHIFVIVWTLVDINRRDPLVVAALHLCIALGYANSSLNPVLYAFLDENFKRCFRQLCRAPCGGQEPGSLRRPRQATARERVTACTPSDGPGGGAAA
Neuronal acetylcholine receptor; alpha4/beta2: Neuronal acetylcholine receptor; alpha4/beta2 (Homo sapiens, UniProt P17787+P43681)
Sequence of UniProt Q8BVQ5 (whole entry, looked up): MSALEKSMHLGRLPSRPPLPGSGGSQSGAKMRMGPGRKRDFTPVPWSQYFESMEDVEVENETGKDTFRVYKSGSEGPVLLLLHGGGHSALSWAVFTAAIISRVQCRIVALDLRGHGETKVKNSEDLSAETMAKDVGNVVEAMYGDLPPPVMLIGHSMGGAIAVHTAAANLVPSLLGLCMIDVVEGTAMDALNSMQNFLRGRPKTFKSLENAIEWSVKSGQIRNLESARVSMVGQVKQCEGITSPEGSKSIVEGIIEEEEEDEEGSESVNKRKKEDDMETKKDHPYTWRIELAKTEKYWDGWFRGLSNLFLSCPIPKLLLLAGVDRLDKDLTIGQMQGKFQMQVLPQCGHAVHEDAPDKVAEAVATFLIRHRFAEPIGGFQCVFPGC
Sequence of UniProt Q9ULC6 (whole entry, looked up): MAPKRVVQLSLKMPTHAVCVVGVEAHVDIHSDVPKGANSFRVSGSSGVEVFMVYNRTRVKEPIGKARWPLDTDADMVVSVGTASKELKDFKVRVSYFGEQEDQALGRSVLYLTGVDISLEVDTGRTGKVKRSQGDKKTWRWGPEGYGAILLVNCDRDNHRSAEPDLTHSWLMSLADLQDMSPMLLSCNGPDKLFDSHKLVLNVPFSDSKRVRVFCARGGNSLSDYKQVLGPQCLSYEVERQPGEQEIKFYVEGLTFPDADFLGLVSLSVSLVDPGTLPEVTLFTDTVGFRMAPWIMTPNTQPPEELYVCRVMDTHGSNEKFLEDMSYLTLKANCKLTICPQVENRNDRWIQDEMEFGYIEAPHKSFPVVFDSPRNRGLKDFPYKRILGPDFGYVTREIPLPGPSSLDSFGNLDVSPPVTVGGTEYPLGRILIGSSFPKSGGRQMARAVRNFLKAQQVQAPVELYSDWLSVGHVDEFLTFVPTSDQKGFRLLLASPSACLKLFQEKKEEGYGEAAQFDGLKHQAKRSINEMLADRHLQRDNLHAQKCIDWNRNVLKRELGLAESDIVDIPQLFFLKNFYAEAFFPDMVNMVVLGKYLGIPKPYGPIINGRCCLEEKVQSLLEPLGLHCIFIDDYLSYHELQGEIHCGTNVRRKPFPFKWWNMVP
Sequence of UniProt A5GZW8 (whole entry, looked up): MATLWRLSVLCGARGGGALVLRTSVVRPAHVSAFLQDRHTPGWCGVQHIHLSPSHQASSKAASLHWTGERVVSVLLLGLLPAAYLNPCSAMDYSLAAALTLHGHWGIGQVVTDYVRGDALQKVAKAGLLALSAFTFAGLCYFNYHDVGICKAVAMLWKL
Sequence of UniProt D0VWV4 (whole entry, looked up): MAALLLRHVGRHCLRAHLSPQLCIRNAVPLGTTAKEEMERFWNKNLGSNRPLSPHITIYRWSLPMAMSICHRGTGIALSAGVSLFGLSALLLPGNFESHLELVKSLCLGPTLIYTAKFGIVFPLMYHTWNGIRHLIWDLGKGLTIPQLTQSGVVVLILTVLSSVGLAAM
Sequence of UniProt P17787 (whole entry, looked up): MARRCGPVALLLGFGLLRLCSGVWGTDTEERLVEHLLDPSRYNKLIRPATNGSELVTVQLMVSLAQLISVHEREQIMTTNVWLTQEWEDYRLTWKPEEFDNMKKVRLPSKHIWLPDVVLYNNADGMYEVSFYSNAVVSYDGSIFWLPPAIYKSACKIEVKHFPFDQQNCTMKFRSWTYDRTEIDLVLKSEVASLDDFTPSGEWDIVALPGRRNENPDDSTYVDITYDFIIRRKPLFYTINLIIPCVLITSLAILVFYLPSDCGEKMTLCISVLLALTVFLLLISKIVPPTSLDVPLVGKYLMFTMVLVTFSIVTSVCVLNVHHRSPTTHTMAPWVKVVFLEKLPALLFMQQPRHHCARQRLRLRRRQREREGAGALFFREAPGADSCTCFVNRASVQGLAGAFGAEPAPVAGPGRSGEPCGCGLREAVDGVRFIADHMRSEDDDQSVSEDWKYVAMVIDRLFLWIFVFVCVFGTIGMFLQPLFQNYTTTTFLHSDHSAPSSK
Sequence of UniProt P43681 (whole entry, looked up): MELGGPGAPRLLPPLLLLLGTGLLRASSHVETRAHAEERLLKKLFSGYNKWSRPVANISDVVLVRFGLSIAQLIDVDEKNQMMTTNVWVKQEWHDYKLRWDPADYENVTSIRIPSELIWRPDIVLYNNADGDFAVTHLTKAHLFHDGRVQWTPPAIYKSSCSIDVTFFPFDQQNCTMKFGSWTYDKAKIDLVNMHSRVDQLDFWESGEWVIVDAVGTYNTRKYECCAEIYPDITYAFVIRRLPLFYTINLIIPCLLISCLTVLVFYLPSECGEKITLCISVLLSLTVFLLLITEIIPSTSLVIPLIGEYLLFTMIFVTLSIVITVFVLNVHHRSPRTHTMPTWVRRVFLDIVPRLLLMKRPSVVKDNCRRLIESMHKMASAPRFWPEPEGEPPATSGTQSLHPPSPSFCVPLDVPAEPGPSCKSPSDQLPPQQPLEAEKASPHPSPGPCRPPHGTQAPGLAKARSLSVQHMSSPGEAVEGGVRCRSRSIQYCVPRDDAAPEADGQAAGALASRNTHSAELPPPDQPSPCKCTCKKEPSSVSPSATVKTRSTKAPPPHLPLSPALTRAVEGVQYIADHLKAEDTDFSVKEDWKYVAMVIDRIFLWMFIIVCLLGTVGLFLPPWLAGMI
Sequence of UniProt Q007T0 (whole entry, looked up): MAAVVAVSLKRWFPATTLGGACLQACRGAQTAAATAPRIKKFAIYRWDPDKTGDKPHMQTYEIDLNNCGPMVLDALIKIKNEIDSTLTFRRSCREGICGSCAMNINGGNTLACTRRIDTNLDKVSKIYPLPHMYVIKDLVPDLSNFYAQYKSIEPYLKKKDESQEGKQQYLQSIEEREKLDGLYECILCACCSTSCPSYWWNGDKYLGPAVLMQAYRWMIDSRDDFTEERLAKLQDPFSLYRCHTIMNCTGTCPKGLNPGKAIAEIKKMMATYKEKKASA
Sequence of UniProt P35348 (whole entry, looked up): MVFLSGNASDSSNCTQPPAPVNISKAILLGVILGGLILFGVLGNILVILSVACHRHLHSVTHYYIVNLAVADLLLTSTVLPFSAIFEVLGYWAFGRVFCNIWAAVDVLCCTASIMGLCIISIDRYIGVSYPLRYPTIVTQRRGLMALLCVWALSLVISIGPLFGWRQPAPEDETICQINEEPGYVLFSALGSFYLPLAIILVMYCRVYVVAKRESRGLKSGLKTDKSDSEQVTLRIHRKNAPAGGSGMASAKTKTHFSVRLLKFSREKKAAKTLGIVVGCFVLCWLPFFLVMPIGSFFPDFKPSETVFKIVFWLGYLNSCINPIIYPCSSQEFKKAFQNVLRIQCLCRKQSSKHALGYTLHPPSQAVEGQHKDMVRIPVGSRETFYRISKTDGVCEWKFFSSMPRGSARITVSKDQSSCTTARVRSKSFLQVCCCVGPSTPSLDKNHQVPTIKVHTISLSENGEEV
Sequence of UniProt P38489 (whole entry, looked up): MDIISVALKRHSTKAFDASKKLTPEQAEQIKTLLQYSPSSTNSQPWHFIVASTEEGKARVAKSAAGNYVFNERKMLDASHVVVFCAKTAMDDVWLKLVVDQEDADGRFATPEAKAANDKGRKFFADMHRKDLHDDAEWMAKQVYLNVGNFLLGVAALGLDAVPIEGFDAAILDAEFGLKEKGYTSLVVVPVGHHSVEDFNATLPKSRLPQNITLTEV
Sequence of UniProt Q9BYT3 (whole entry, looked up): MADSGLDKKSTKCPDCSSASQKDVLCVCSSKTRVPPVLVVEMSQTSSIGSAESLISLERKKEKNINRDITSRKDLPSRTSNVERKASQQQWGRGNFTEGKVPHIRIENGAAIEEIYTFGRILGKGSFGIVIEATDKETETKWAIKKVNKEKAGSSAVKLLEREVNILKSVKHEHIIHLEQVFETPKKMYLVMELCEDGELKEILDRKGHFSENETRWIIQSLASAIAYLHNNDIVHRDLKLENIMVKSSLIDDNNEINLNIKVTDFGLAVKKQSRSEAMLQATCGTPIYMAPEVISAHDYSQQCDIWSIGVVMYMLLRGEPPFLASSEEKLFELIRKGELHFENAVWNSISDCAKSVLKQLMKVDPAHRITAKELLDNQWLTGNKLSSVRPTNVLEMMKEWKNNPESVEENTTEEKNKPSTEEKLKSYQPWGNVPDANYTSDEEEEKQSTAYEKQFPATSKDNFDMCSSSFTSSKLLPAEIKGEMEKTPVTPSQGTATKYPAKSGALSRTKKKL
Sequence of UniProt Q92564 (whole entry, looked up): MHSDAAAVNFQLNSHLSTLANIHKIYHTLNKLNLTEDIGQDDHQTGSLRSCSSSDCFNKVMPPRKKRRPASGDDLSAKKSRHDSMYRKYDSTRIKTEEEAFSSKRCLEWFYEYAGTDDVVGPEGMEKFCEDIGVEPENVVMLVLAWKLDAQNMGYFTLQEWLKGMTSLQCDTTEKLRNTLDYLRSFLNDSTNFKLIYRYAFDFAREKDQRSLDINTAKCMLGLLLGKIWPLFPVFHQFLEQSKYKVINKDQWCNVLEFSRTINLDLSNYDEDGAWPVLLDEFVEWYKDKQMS
Sequence of UniProt Q3UFF7 (whole entry, looked up): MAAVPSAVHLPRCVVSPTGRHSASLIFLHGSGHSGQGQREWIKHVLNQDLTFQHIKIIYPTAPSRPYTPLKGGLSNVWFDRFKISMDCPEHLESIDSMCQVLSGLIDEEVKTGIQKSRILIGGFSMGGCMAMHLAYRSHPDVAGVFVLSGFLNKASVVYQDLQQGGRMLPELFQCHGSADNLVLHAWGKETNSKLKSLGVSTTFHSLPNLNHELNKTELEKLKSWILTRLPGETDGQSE

CN(C)CCCSC(=S)N1CCN(C(=O)/C=C/c2coc3ccccc3c2=O)CC1
MST response (Nucleoprotein (N, Tomato spotted wilt virus, UniProt P25999, R94A/Y184A); binding, microscale thermophoresis; 0.1221 µM; dose series): 0.21 a.u.

COc1c(N2CC3CCCNC3C2)c(F)cc2c(=O)c(C(=O)OCc3ccc([N+](=O)[O-])cc3)cn(C3CC3)c12 (stereo not shown)
kcat (Oxygen-insensitive NAD(P)H nitroreductase (nfsB, Escherichia coli K-12, UniProt P38489); substrate; added: NADH 100 µM): 0.167 s⁻¹

CCCC[C@H]1CNCCN1C[C@@H]1CCCN1C[C@@H](Cc1ccc2ccccc2c1)N1CCN(CCc2ccc(Cl)c(Cl)c2)[C@H](Cc2ccc(O)cc2)C1
remaining binding (Oprd1; radioligand binding; rat brain membranes; 500 nM, pH 7.5, 25 °C, added: 2 nM [3H]DPDPE): 83.8%

N[C@@H](Cc1ccccc1)P(=O)(O)O
ΔH (PAL1 (Petroselinum crispum, UniProt P24481, Y110F); binding, ITC): -8.5 kcal/mol

CC(C)[C@H]1NC(=O)C[C@H]2/C=C/CCSSC[C@@H](NC1=O)C(=O)N[C@H](Cc1cccc3ccccc13)C(=O)NCC(=O)O2
inhibition (Dual specificity mitogen-activated protein kinase kinase 5 (MAP2K5, Homo sapiens, UniProt Q13163); 10 µM): 2.5%

C#CCCCCOc1ccc2c(c1)CCCN2C(=O)CCl
reactivity ratio (DCN1-like protein 4 (Homo sapiens, UniProt Q92564); mass spectrometry profiling, refers to: DCUN1D4; H460 cell lysate; 100 µM over 10 µM, UniProt Q92564; baseline: high over low concentration): 1.28

Oc1ccc(C[C@@H]2CN([C@@H](CC3CCCCC3)CN3CCC[C@H]3CN3CCNC[C@@H]3Cc3ccc4ccccc4c3)CCN2CCC23CC4CC(CC(C4)C2)C3)cc1
remaining binding (Oprd1; radioligand binding; rat brain membranes; 500 nM, pH 7.5, 25 °C, added: 2 nM [3H]DPDPE): 84.3%

CON(C(=O)c1cn(C)nc1C(F)F)C(C)Cc1c(Cl)cc(Cl)cc1Cl (stereo not shown)
reaction velocity (SDHD/SDHC/SDHB (Sus scrofa, UniProt A5GZW8+D0VWV4+Q007T0); enzyme activity, inhibitor, DCIP reduction; pig; 0.1 µM, added: DCIP 10 µM): 0.004 µM/s and 0.00434 µM/s

CS(C)(=O)=Nc1ccc(-c2ccc(-c3nc4cc(O[C@@H]5CO[C@H]6[C@@H]5OC[C@H]6O)[nH]c4cc3F)cc2)cc1
inhibition (Neuronal acetylcholine receptor; alpha4/beta2; ligand displacement, radioligand; 10 µM): -6%

O=C1NC2(CC2)COc2ncc(F)cc2[C@H]2COCCN2c2ccn3ncc1c3n2
organ weight (Sprague-Dawley rat, male, thymus; oral, 5 mg/kg/day, 4 weeks): 0.676 ± 0.139 g

O=C(O)c1cccc(CP(=O)(O)O)n1
koff (Beta-lactamase L1 (Stenotrophomonas maltophilia, UniProt P52700); enzyme activity, inhibitor; added: nitrocefin): 0.003 ± 0.0005 s⁻¹

N[C@H](C(=O)N1CCCC1)C1CCN(c2nccc3c(-c4ncc(Cl)cc4Cl)cccc23)CC1
kcat (Protein-arginine deiminase type-1 (PADI1, Homo sapiens, UniProt Q9ULC6); enzyme activity; 0.6144 µM, added: Ca2+ 0.25 mM): 0.0677 s⁻¹ and 0.0854 s⁻¹

O=C(N[C@@H]1c2ccccc2C[C@H]1N1CCCC1)c1ccc(-c2ccnc3[nH]ccc23)nc1
remaining binding (Rho-associated protein kinase 1 (ROCK1, Homo sapiens, UniProt Q13464); binding, competition with immobilised ligand; 3 µM): 0.1%

C/C(=N\OCCCN1CCCCC1)c1ccc(C(F)(F)F)cc1
activation (Neuronal acetylcholine receptor; alpha4/beta2; calcium influx, agonist, FLIPR; 10 µM): 0.69%

CC(C)CC(O)(CC(C)C)c1cn(C(=O)N2CCCC2)nn1
SILAC activity ratio (Protein phosphatase methylesterase 1 (Mus musculus, UniProt Q8BVQ5); probe labelling, inhibitor, competitive ABPP-SILAC, refers to: Ppme1; mouse T cells; concentration not given, 4 h, single peptide; baseline: treated over DMSO cells, lower = stronger inhibition): 1.17 and 1.23 and 0.97 and 1.05 and 1.14 and 1.04

C[N+](C)(C)CCCCCNc1ccc([N+](=O)[O-])c2nonc12
fluorescence quench after dithionite (emrE (Escherichia coli, UniProt P23895); proteoliposome transport; concentration not given, 200 s): 80%

Cc1cc(-c2ccc3ccccc3c2)nnc1NCCN1CCN(C)CC1
activity (5-hydroxytryptamine receptor 1A (HTR1A, Homo sapiens, UniProt P08908); antagonist; 10000 nM; baseline: control): 0%

Cc1nc2ccc(S(=O)(=O)n3nc(CCCc4ccc(Cl)cc4)nc3N)cc2s1
probe labeling increase (Lysophospholipase-like protein 1 (Mus musculus, UniProt Q3UFF7); enzyme activity, activator, gel-based ABPP; purified protein; concentration not given, added: FP-rhodamine; baseline: DMSO): 1 fold

Cc1cc(Nc2nc(C[C@@]3(C(=O)O)CCN(Cc4cccc(Cl)c4F)[C@H](C)C3)cc(C)c2F)[nH]n1
activation (Alpha-1A adrenergic receptor (ADRA1A, Homo sapiens, UniProt P35348); agonist; 10 µM): 0.25%

Cc1ccc(N2CC3CCC(C2)N3C)cc1C(=O)N[C@H](C)c1cc(-c2cnn(C)c2)nc2ccccc12
remaining activity (Ubiquitin carboxyl-terminal hydrolase 15 (USP15, Homo sapiens, UniProt Q9Y4E8); enzyme activity; 10 µM, 0.5 h): 103%

C[C@@H](O)[C@@H]1CN([C@H](Cc2ccc3ccccc3c2)CN2CCC[C@H]2CN2CCNC[C@@H]2CO)CCN1CCc1ccc(Cl)c(Cl)c1
remaining binding (Oprd1; radioligand binding; rat brain membranes; 500 nM, pH 7.5, 25 °C, added: 2 nM [3H]DPDPE): 91.5%

Cc1cc(Cl)ccc1OC(C)C(=O)N1CCc2ccccc21 (stereo not shown)
IC50 ratio (Dihydroorotate dehydrogenase (quinone), mitochondrial (PFF0160c, Plasmodium falciparum, UniProt Q08210, E182D); enzyme activity, DCIP colorimetric; baseline: E182D mutant over wild type): 0.1

O=C1NC(=O)c2c1c1cc(F)c[n+]3c1c1c2c2cc(O)ccc2[n]1[Ru-4]312([N]=C=S)[S+]3CC[S+]1CC[S+]2CC3 (stereo not shown)
remaining activity (Serine/threonine-protein kinase 33 (STK33, Homo sapiens, UniProt Q9BYT3); enzyme activity; 100 nM, human enzyme, added: 10 µM ATP; baseline: untreated): 67%

CN(C)[C@H]1C[C@@]23CC[C@@]4(O2)C(=CC[C@]2(C)[C@@H](c5ccc6ccncc6c5)CC[C@H]24)C=C3[C@@H](O)[C@@H]1O
inhibition (STE20-like serine/threonine-protein kinase (SLK, Homo sapiens, UniProt Q9H2G2); ATP probe labelling, inhibitor, KiNativ profiling; 0.1 µM): 11.4%

CCOC(=O)[C@@H]1Cc2c(cc([N+](=O)[O-])cc2[N+](=O)[O-])[C@H](O)[C@]12C(=O)Nc1ccc(Br)cc12
remaining binding (Aurora kinase A (AURKA, Homo sapiens, UniProt O14965); binding, competition with immobilised ligand; 0.1 µM): 57%

C[C@H](NCc1ccc(-c2ccc(C(F)(F)F)cc2)cc1)C(N)=O
inhibition (NMDA receptor agonist site, rat; binding, radioligand binding; biochemical; 1 µM, added: [3H]CGP-39653 2.0 nM): 2%

C=C(c1ccccc1)[C@@H](N)P(=O)(O)O
reaction rate reduction (PAL1 (Petroselinum crispum, UniProt P24481); L-Phe deamination, inhibitor, UV steady-state kinetics; 50 µM, added: L-Phe 5 mM): 4%

CCN(N=Cc1cnc2ccc(Br)cn12)S(=O)(=O)c1cc([N+](=O)[O-])ccc1C
IC50 fold decrease (Phosphatidylinositol 4,5-bisphosphate 3-kinase catalytic subunit beta isoform (PIK3CB, Homo sapiens, UniProt P42338, M783K); luminescence; baseline: wild-type p110β): 2 fold

For quick reference, copied from above:
O=C1NC(=O)c2c1c1cc(F)c[n+]3c1c1c2c2cc(O)ccc2[n]1[Ru-4]312([N]=C=S)[S+]3CC[S+]1CC[S+]2CC3 (stereo not shown)
remaining activity (Serine/threonine-protein kinase 33 (STK33, Homo sapiens, UniProt Q9BYT3); enzyme activity; 100 nM, human enzyme, added: 10 µM ATP; baseline: untreated): 67%

CON(C(=O)c1cn(C)nc1C(F)F)C(C)Cc1c(Cl)cc(Cl)cc1Cl (stereo not shown)
reaction velocity (SDHD/SDHC/SDHB (Sus scrofa, UniProt A5GZW8+D0VWV4+Q007T0); enzyme activity, inhibitor, DCIP reduction; pig; 0.1 µM, added: DCIP 10 µM): 0.004 µM/s and 0.00434 µM/s

Cc1ccc(N2CC3CCC(C2)N3C)cc1C(=O)N[C@H](C)c1cc(-c2cnn(C)c2)nc2ccccc12
remaining activity (Ubiquitin carboxyl-terminal hydrolase 15 (USP15, Homo sapiens, UniProt Q9Y4E8); enzyme activity; 10 µM, 0.5 h): 103%

C[C@@H](O)[C@@H]1CN([C@H](Cc2ccc3ccccc3c2)CN2CCC[C@H]2CN2CCNC[C@@H]2CO)CCN1CCc1ccc(Cl)c(Cl)c1
remaining binding (Oprd1; radioligand binding; rat brain membranes; 500 nM, pH 7.5, 25 °C, added: 2 nM [3H]DPDPE): 91.5%
